Assay results pooled from the literature.
Numbered parts are unrelated; each lists some results of a single study. Values joined by “and” are separate records of one study, mostly repeats; a detail may differ.

Study 1 — cell line: HCC1569; technique: in-cell western; item: CDK1 phospho-Thr14; tested at: 1111.11 nM; quantity: pCDK1 (Thr14) level
Cc1ccc(O)c(C)c1-c1cnc2[nH]c(-c3cnc(N4CCC(CN5CCN(c6ccc7c(c6)CN(C6CCC(=O)NC6=O)C7=O)CC5)CC4)nc3)cc2c1C#N (stereo not shown): 104 RLU and 102 RLU
Cc1ccc(O)c(C)c1-c1cnc2[nH]c(-c3cnc(N4CCC5(CC4)CC(CN4CCN(c6ccc(NC7CCC(=O)NC7=O)cc6F)CC4)C5)nc3)cc2c1C#N (stereo not shown): 128 RLU and 136 RLU
Cc1ncc(-c2cc3c(Cl)c(-c4c(C)ccc(O)c4C)cnc3[nH]2)cn1: 48.8 RLU and 54.6 RLU
Cc1ccc(O)c(C)c1-c1cnc2[nH]c(-c3cnc(N4CCC(CCN5CCN(c6ccc(N7CCC(=O)NC7=O)cc6F)CC5)CC4)nc3)cc2c1C#N: 92.2 RLU and 86.2 RLU
Cc1ccc(O)c(C)c1-c1cnc2[nH]c(-c3cnc(N)nc3)cc2c1C#N: 62.8% and 75%
Cc1ncc(-c2cc3c(C(N)=O)c(-c4c(C)ccc(O)c4C)cnc3[nH]2)cn1: 14.2 RLU and 9.41 RLU
Cc1ccc(O)c(C)c1-c1cnc2[nH]c(-c3cnc(N4CCC(CN5CCN(c6ccc7c(c6F)CN(C6CCC(=O)NC6=O)C7=O)CC5)CC4)nc3)cc2c1C#N (stereo not shown): 125 RLU and 140 RLU

Study 2 — organism: Arabidopsis thaliana; strain: Col-0; tested at: 50 µg/mL; setting: seed germination, single repetition; quantity: hypocotyl length
O=C(O)C1(O)Oc2cc(F)ccc2N(Cc2ccccc2)C1=O (stereo not shown): 0.11 cm and 0.1 cm and 0.13 cm
COc1ccc2c(c1)OC(O)(C(=O)O)C(=O)N2Cc1ccccc1 (stereo not shown): 1.31 cm and 1.33 cm and 1.3 cm
O=C(O)C1(O)Oc2ccccc2N(Cc2ccccc2)C1=O (stereo not shown): 1.45 cm and 1.47 cm and 1.43 cm and 1.46 cm
O=C(O)C1Oc2cc(F)ccc2N(Cc2ccccc2)C1=O (stereo not shown): 1.92 cm and 1.84 cm and 1.89 cm and 1.86 cm and 1.79 cm
O=C(O)C1(O)Oc2cc(Cl)ccc2N(Cc2ccccc2)C1=O (stereo not shown): 1.32 cm and 1.3 cm and 1.31 cm and 1.36 cm and 1.35 cm

Study 3 — cell line: U-87 MG; tested at: concentration not given; reference: DMSO; quantity: log2 fold change
SMILES: CCN1/C(=C/C=C2\CCCC(/C=C/C3=[N+](CC)c4ccccc4C3(C)C)=C2NCCCCCCCCN2CCC(Nc3nc4ccccc4n3Cc3ccc(F)cc3)CC2)C(C)(C)c2ccccc21
item: ADAMTS12 mRNA: -2.25
item: SPC24 mRNA: -3.22
item: MMP16 mRNA: -0.894
item: ZFY mRNA: 1.24
item: CENPI mRNA: -2.33
item: WNT10B mRNA: -2.31
item: SOD2 mRNA: 1.34
item: NUDT4 mRNA: 0.889
item: SETMAR mRNA: -0.82
item: GPSM2 mRNA: -1.46
item: CCDC171 mRNA: 1.91
item: DLG1 mRNA: -0.861
item: POR mRNA: 0.935

Study 4 — technique: qRT-PCR; species: mouse, PK-59 xenograft; medium: tumour; setting: unit not given; quantity: mRNA level
SMILES: Cc1ncsc1-c1ccc(C(CO)NC(=O)C2CC(O)CN2C(=O)C(C(C)C)n2cc(-c3ccc(COc4c(-c5c(C)c(F)cc6[nH]ncc56)c(C5CC5)cc5c(N6CC7CC6CN7)nc(OC6CCOCC6)nc45)cc3)nn2)cc1 (stereo not shown)
item: ETV4; 10 mg/kg, 72 h; reference: vehicle: 0.245 and 0.179 and 0.207
item: DUSP6; intravenous, 10 mg/kg, 144 h; reference: vehicle, same time point: 0.159 and 0.125 and 0.219
item: FOSL1; 30 mg/kg, 144 h; reference: vehicle: 0.247 and 0.194
item: DUSP6; intravenous, 10 mg/kg, 2 h; reference: vehicle, same time point: 0.178 and 0.158 and 0.129
item: DUSP6; intravenous, 30 mg/kg, 6 h; reference: vehicle, same time point: 0.0162 and 0.00894 and 0.0118
item: DUSP4; 10 mg/kg, 2 h; reference: vehicle: 1.18 and 1.28 and 0.953
item: MYC; intravenous, 30 mg/kg, 144 h; reference: vehicle, same time point: 0.0527 and 0.0684
item: DUSP6; intravenous, 30 mg/kg, 144 h; reference: vehicle, same time point: 0.0927 and 0.092
item: MYC; intravenous, 30 mg/kg, 72 h; reference: vehicle, same time point: 0.0384 and 0.0269 and 0.022

Excerpt of the above (study 4):
item: DUSP6; intravenous, 10 mg/kg, 144 h; reference: vehicle, same time point: 0.159 and 0.125 and 0.219
item: FOSL1; 30 mg/kg, 144 h; reference: vehicle: 0.247 and 0.194
